Experimental data collected from several papers.
Lines come from different studies, so protocols differ.

SMILES = CC(=O)Oc1c2c(c3ccc4c(c3c1OC(C)=O)C=CC(=O)C4(C)C)OC[C@@H]2C; test system = mouse 4T1 tumour; setting = intravenous, 10 mg/kg daily; tumour growth inhibition = 61.5%
SMILES = Brc1ccc(Nc2nc(NN=Cc3c[nH]c4ccccc34)nc(N3CCOCC3)n2)cc1; test system = mouse A549 xenograft; setting = ip, 70 mg/kg daily, 14 days; tumour growth inhibition = 45%
SMILES = N#Cc1cccc(-c2ccc(=O)n(Cc3cccc(-c4ncc(OCC5CCN(CC(=O)N6CCN(c7ccc8c(c7)C(=O)N(C7CCC(=O)NC7=O)C8=O)CC6)CC5)cn4)c3)n2)c1 (centres unmarked); test system = mouse Hs746T xenograft; setting = oral, 20 mg/kg daily, 12 days; tumour growth inhibition = 91.6%
SMILES = Cc1cc(O)cc(O)c1C(=O)c1c2c3c(c(O)cc(C)c3oc1=O)C(=O)c1c(O)cc(O)cc1-2; test system = H22 subcutaneous, mouse; setting = intraperitoneal, 5 mg/kg daily; tumour growth inhibition = 55%
SMILES = CN1Cc2cnc3ccc(-c4ccc(N)nc4)nc3c2N(c2cccc(C(F)(F)F)c2)C1=O; test system = PC-3 xenograft, mouse; setting = oral, 60 mg/kg once daily, 14 days; tumour growth inhibition = 82.1%
SMILES = O=c1[nH]c(N2CCC3(CC2)CN(CCO)c2cc(F)cc(F)c23)nc2c1CCCC2; test system = mouse COLO 320DM xenograft; setting = intraperitoneal, 300 mg/kg once daily, 5 days on 2 off, 2 weeks; tumour growth inhibition = 44.2%
SMILES = NC(=O)c1cccnc1.O.O=c1[nH]cc(F)c(=O)[nH]1.O=c1[nH]cc(F)c(=O)[nH]1.O=c1[nH]cc(F)c(=O)[nH]1; test system = nude mouse HCT-116 xenograft; setting = 0.012 mmol/kg/day, 21 days; tumour growth inhibition = 28.5%
SMILES = NC(CSSCC(N)C(=O)N1CCn2cc(-c3ccccc3)nc2C1CC1CCCCC1)C(=O)N1CCn2cc(-c3ccccc3)nc2C1CC1CCCCC1 (centres unmarked); test system = mouse MP41 xenograft; setting = intraperitoneal, 15 mg/kg/day, 21 d; tumour growth inhibition = 55.3%
SMILES = C=CC(=O)N1C[C@H](C)N(c2nc(OC[C@@]34CCCN3C[C@H](F)C4)nc3c(F)c(-c4ccc(F)c5sc(N)c(C#N)c45)c(C(F)(F)F)cc23)C[C@H]1C; test system = mouse MIA PaCa-2 xenograft; setting = oral, 0.1 mg/kg daily, 28 days; tumour growth inhibition = 21%
SMILES = CO.Cc1ccc2c(Cl)cc(Cl)c([O-])c2n1.Cc1ccc2c(Cl)cc(Cl)c([O-])c2n1.[Co+2].c1ccc2nc3c4cccnc4c4ncccc4c3nc2c1; assay = refers to: tumour weight; test system = HeLa xenograft, nude mouse; setting = 2.0 mg/kg every 2 days, 21.0 days; tumour growth inhibition = 43.7%
SMILES = Cn1c(=O)n(-c2ccc(C(C)(C)C#N)cc2)c2c3cc(-c4cnc5ccccc5c4)ccc3ncc21; test system = PC-3 xenograft, mouse; setting = oral, 30 mg/kg once daily, 14 days; tumour growth inhibition = 67.6%
SMILES = N#Cc1cccc(-c2ccc(=O)n(Cc3cccc(-c4ncc(OCC5CCN(CC(=O)NCCOCCNc6ccc7c(c6)C(=O)N(C6CCC(=O)NC6=O)C7=O)CC5)cn4)c3)n2)c1 (centres unmarked); test system = mouse Hs746T xenograft; setting = oral, 40 mg/kg daily, 12 days; tumour growth inhibition = 88.5%
SMILES = Cc1cc(NC(=O)[C@H](O)c2cc(F)cc(F)c2)ccc1-c1cnc(N)c(C(=O)NC(C)C)c1; test system = mouse 786-O xenograft; setting = oral, 30 mg/kg twice daily, 28 days; tumour growth inhibition = 48%
SMILES = CN1CCN(c2ccc(Nc3ncc(Cl)c(Nc4ccccc4P(C)(C)=O)n3)cc2Br)CC1; test system = mouse, PC9-OR xenograft; setting = oral, 60 mg/kg once daily, 14 days; tumour growth inhibition = 137%

For quick reference, copied from above:
SMILES = CO.Cc1ccc2c(Cl)cc(Cl)c([O-])c2n1.Cc1ccc2c(Cl)cc(Cl)c([O-])c2n1.[Co+2].c1ccc2nc3c4cccnc4c4ncccc4c3nc2c1; assay = refers to: tumour weight; test system = HeLa xenograft, nude mouse; setting = 2.0 mg/kg every 2 days, 21.0 days; tumour growth inhibition = 43.7%
